Measurements collected from several papers.
± gives the spread as reported.
Cell line: A549

`C[C@@H]1NC(=O)[C@H](CCC(=O)O)NC(=O)CNC(=O)[C@H](CC(=O)O)NC(=O)CNC(=O)[C@H](CCCCNC(=O)CCCCCNC(=O)[C@H](CS)NC(=O)CCCCCNC(=O)CN2CCN(CC(=O)O)CCN(CC(=O)O)CCN(CC(=O)O)CC2)NC(=O)[C@@H](Cc2ccc(O)cc2)NC1=O` [gallium-68 labelled] has a cellular uptake of less than 1% (5 to 90 min, 37 °C; relative to: added radioactivity).
`CC(=O)OCC1=CCC2[C@]3(C)COC(c4ccccc4)O[C@@H]3CC[C@@]2(C)[C@@H]1/C=C/C1=CCOC1=O` (stereo partly drawn) gave an inhibition of 48% (cell growth or viability, MTT; 20 µM, 48 h).
With `COc1ccc(/C=C/C2=[N+]3C(=C(C=O)c4c(C)c(Br)c(/C=C/c5ccc(OC)cc5)n4[B-]3(F)F)C(C)=C2Br)cc1` the phototoxicity index was 16 ± 12 (resazurin; added: 645 nm light; relative to: dark over light IC50).
For `[Cl-].[Cl-].[Ru+2].c1ccc(-c2cc(-c3ccccn3)nc(-c3ccccn3)c2)cc1.c1ccc(-c2ccnc3c2ccc2c(-c4ccccc4)ccnc23)cc1`, “lowest concentration inhibiting OCR” read greater than 3.3 µM (oxygen consumption rate, Seahorse extracellular flux; 1 h, dark).
For `COc1cc2ncc3c(c2cc1-c1cnn(C)c1)n(-c1ccc(C#N)cc1F)c(=O)n3C`, colony formation read “decreased” (1 µM, added: ionising radiation; relative to: ionising radiation alone).
`[Cl-].[Cl-].[Ru+2].c1ccc(-c2ccccn2)nc1.c1ccc(-c2ccccn2)nc1.c1ccc(-c2ccccn2)nc1` — result for “lowest concentration inhibiting OCR”: greater than 25 µM (oxygen consumption rate, Seahorse extracellular flux; 1 h, dark).
`CN(C)c1cccc2c(S(=O)(=O)NCCCCCC(=O)NO)cccc12` — result for “cells in G1 phase”: 82.6% (cell cycle, propidium iodide flow cytometry; 10 µM).
For `CCN1CCC2(CC1)C/C(=N\NC(=O)Nc1ccccc1)c1ccccc1O2`, the necrotic cells was 2.93% (annexin V-FITC/PI; concentration not given, 24 h).
`Cc1cc(-c2ccccc2)c2ccc3c(-c4ccccc4)cc(C)nc3c2n1.[Cl-].[Cl-].[Ru+2].c1ccc(-c2ccccn2)nc1.c1ccc(-c2ccccn2)nc1`: “maximum cellular uptake” roughly 2.2 nmol/10⁶ cells (3 µM, 6 to 12 h, dark).
The growth of `CC(=O)OC[C@H]1O[C@@H](Sc2sc(C(=O)c3ccc(C)cc3)c(N)c2-c2nc3ccccc3s2)[C@H](OC(C)=O)[C@@H](OC(C)=O)[C@@H]1OC(C)=O` is reported as 81.9% (SRB; 10 µM, 48 h).
With `CCCC1OC2CC3C4CCC5=CC(=O)C=CC5(C)C4C(O)CC3(C)C2(C(=O)COC(=O)CN(C)C)O1` (stereo not drawn) the inhibition was greater than 50% (IL-6 release, inhibitor, ELISA; 1 nM, 24 h, LPS-stimulated).
`Nc1cccc[n+]1Cc1cccc(C[n+]2ccccc2N)c1` — result for “cell population in G2/M phase”: 24.8% (flow cytometry; 15 µM, 24 h).
`O=c1c2ccccc2oc2cc(OCc3cn(Cc4ccc(Br)cc4)nn3)cc(O)c12` — result for “total apoptotic cells”: 24.2% (annexin V/PI flow cytometry; 34 µM, 48 h).
For `S=c1n(-c2ccccc2)c2c3ccccc3nc3[n+]2[n]1[Ir-3]12([S]3)([c]3ccccc3-c3sc4ccccc4[n+]31)[c]1ccccc1-c1sc3ccccc3[n+]12`, the phototoxicity index was greater than 3570 (relative to: IC50 dark over IC50 light).
`CCNc1cc2c(cc1C)C1(c3cc(C)c(NCC)cc3O2)c2ccccc2C(=O)N1N=Cc1c[c-]c(-c2ccccn2)cc1.Cc1c(C)c(-c2ccc(-c3ccccc3)cc2)[c-](C)c1C.[Cl-].[Ir+3]` — result for “S phase increase”: 8.58% (2 x IC50, 24 h; relative to: untreated).
`COc1ccc([C@@H]2CC(=O)c3c(O)cc(O[C@@H]4O[C@H](CO[C@@H]5O[C@@H](C)[C@H](O)[C@@H](O)[C@H]5O)[C@@H](O)[C@H](O)[C@H]4O)cc3O2)cc1O` gave a gap closure of 6.76 ± 0.82% (cell migration, scratch; 100 µg/mL, 48 h).
`FC(F)(F)c1ccnc(-c2cc(C(F)(F)F)ccn2)c1.FC(F)(F)c1ccnc(-c2cc(C(F)(F)F)ccn2)c1.[Cl-].[Cl-].[Ru+2].c1cnc2c(c1)ccc1cccnc12` has an EC50 of greater than 300 µM (cell growth or viability, resazurin; dark).
For `CCCCN(CCCC)CC(O)COc1c2ccoc2c(OC)c2oc(CC)cc(=O)c12` (stereo not drawn), “late apoptotic or necrotic cells” read 39.7% (annexin V/7-AAD flow cytometry; IC50, 72 h).

For quick reference, copied from above:
`CCNc1cc2c(cc1C)C1(c3cc(C)c(NCC)cc3O2)c2ccccc2C(=O)N1N=Cc1c[c-]c(-c2ccccn2)cc1.Cc1c(C)c(-c2ccc(-c3ccccc3)cc2)[c-](C)c1C.[Cl-].[Ir+3]` — result for “S phase increase”: 8.58% (2 x IC50, 24 h; relative to: untreated).
For `CCN1CCC2(CC1)C/C(=N\NC(=O)Nc1ccccc1)c1ccccc1O2`, the necrotic cells was 2.93% (annexin V-FITC/PI; concentration not given, 24 h).
With `COc1ccc(/C=C/C2=[N+]3C(=C(C=O)c4c(C)c(Br)c(/C=C/c5ccc(OC)cc5)n4[B-]3(F)F)C(C)=C2Br)cc1` the phototoxicity index was 16 ± 12 (resazurin; added: 645 nm light; relative to: dark over light IC50).
